Results pooled from the literature.
A part holds a random share of what one study measured. Values joined by “and” are separate records of one study, mostly repeats; a detail may differ.

Study 1 — mode: agonist
Target: Beta-1 adrenergic receptor (ADRB1, Homo sapiens, UniProt P08588)
Sequence of UniProt P08588 (whole entry, looked up): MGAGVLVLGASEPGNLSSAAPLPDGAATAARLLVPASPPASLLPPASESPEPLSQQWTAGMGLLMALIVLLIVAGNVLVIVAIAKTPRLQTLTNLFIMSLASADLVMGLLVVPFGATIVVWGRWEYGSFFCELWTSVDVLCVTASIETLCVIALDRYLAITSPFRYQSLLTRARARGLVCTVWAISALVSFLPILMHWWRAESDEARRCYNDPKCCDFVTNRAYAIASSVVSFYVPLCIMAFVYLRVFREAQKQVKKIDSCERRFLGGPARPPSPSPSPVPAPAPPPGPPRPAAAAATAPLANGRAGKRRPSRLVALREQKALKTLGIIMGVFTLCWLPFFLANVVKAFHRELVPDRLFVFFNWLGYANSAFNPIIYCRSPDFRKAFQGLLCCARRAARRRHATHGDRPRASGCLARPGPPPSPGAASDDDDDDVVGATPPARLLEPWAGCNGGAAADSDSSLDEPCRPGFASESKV
SMILES | EC50 [µM]
O=C(NCC(O)c1ccccc1)c1cnn2c(-c3ccccc3)ccnc12 (centres unmarked) | ≥ 100
COCCN1CCOc2nc(-c3cccc(N(C)C)c3)ncc2C1=O | ≥ 100
CCN1CC(C(=O)NCC2CCN(c3ccccc3OC)C2)CC1=O (centres unmarked) | ≥ 100
C[C@@H]1CN(CC(=O)Nc2ccc3c(c2)Cc2cccc(-c4cc(=O)cc(N5CCOCC5)o4)c2S3)C[C@H](C)O1 | ≥ 100
N#CC(c1nc2ccccc2s1)c1cnn(-c2ccccc2)c(=O)c1Cl (centres unmarked) | ≥ 100
O=C1c2c(nc(COc3cccc(N4CCOCC4)c3)n2Cc2ccccc2)NCCN1CC1CC1 | ≥ 100
COc1ccccc1-c1cc(-c2ccccc2)nc2c(C)noc12 | ≥ 100

Study 2 — technique: Incucyte 3D growth; concentration: 30 µM; reading: higher = more growth
SMILES: CC(C)(C(=O)O)[C@H](NC(=O)Cc1cccc(I)c1)c1ccc2oc(=O)[nH]c2c1
cell line | time | spheroid area
KP-4 | 90 h | 1.87e+07 a.u. and 1.69e+07 a.u. and 1.52e+07 a.u. and 1.56e+07 a.u. and 1.71e+07 a.u. and 1.59e+07 a.u.
KP-4 | 228 h | 2e+07 a.u. and 4.54e+07 a.u. and 6.93e+07 a.u. and 4.38e+07 a.u. and 3.95e+07 a.u. and 4.49e+07 a.u.
PC-9 | 120 h | 9.35e+08 a.u. and 9.07e+08 a.u. and 8.61e+08 a.u. and 8.67e+08 a.u. and 9.09e+08 a.u. and 8.96e+08 a.u.
IPC-298 | 24 h | 2.34e+07 a.u. and 2.28e+07 a.u. and 1.8e+07 a.u. and 1.87e+07 a.u. and 2.01e+07 a.u. and 2.17e+07 a.u.

Study 3 — read-out: ligand displacement; concentration: 10 µM
Target: Histamine H1 receptor (HRH1, Homo sapiens, UniProt P35367)
Sequence of UniProt P35367 (whole entry, looked up): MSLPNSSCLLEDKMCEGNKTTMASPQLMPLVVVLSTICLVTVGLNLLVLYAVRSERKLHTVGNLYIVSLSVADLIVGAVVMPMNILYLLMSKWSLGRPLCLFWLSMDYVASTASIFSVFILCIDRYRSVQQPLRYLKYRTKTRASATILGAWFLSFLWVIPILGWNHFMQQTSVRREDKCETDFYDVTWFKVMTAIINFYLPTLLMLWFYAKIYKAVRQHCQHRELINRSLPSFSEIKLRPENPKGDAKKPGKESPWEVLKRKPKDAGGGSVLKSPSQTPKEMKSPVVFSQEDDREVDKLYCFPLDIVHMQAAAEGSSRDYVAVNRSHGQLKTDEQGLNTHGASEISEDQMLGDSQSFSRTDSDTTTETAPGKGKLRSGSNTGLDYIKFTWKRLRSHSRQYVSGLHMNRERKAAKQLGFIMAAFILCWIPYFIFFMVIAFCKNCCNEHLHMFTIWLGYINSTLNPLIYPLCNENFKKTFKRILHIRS
Compound | inhibition
O=C(N[C@H]1CCCCC/C=C\C2C[C@@]2(C(=O)O)NC(=O)[C@@H]2C[C@@H](Oc3ccncc3)CN2C1=O)OC1CCCC1 (some centres unmarked) | 23.9%
Cc1c(NC(=O)c2cc(C(N)=O)nc3cc(F)ccc23)c(C(F)(F)F)nn1Cc1ccc(C#N)cc1 | -37.7%
COc1cc(-c2cn(C3CCc4c(F)cccc4N(CC(F)(F)F)C3=O)nn2)ccc1-n1cnc(C)c1 (centres unmarked) | 7.55%
CC1CCN(c2ccnc(NCc3cn(C)cn3)n2)CC1 | 40.1%

Study 4 — read-out: enzyme activity; mode: inhibitor; concentration: 0.5 µM; baseline: control
Target: Calcium/calmodulin-dependent protein kinase type II subunit beta (CAMK2B, Homo sapiens, UniProt Q13554)
Sequence of UniProt Q13554 (whole entry, looked up): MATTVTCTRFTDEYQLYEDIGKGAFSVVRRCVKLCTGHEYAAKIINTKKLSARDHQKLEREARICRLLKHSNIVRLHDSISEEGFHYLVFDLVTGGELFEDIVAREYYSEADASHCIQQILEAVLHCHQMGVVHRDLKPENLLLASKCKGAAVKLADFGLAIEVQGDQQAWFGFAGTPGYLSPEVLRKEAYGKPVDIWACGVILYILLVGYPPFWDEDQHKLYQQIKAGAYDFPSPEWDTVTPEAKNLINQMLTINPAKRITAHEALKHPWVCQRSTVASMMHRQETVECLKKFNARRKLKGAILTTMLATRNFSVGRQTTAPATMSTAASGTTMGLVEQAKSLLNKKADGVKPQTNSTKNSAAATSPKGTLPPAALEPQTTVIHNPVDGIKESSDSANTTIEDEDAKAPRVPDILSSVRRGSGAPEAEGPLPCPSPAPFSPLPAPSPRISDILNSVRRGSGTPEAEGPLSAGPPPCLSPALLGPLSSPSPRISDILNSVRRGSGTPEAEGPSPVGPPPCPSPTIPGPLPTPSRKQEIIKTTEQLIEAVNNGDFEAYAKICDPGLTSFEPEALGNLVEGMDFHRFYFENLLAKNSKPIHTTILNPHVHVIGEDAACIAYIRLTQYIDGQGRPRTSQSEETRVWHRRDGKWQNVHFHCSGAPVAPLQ
Structure (SMILES) | remaining activity [%]
CC(C)[C@H](CO)Nc1nc(Nc2cc(N)cc(Cl)c2)c2ncn(C(C)C)c2n1 | 98.2
Cc1ccc(Nc2nccc(N(C)c3ccc4c(C)n(C)nc4c3)n2)cc1S(N)(=O)=O | 95.5
Nc1ncnc2n[nH]c(Nc3ccc(F)cc3)c12 | 97.7
Cc1cccc(-c2[nH]c(C(C)(C)C)nc2-c2ccc3c(c2)OCO3)n1 | 96.2
OCC(O)CCON=C1C(c2c(O)[nH]c3ccccc23)=Nc2ccccc21 (centres unmarked) | 57.9
NCCNc1ncc(C(N)=O)c(Nc2cccc(C(F)(F)F)c2)n1 | 89.8
Cc1ccc(NC(=O)c2ccc(CN3CCN(C)CC3)cc2)cc1Nc1nc(-c2cccnc2)cs1 | 100
CN(C)c1ccc(C=C2C(=O)Nc3ccccc32)cc1 | 108
CNC(=O)c1cc(Oc2ccc(NC(=O)Nc3ccc(Cl)c(C(F)(F)F)c3)cc2)ccn1 | 96.7
COc1cc2nccc(Oc3ccc(NC(=S)NC(=O)c4ccccc4C)cc3)c2cc1OC | 104
C#Cc1cccc(Nc2ncnc3cc(OCCOC)c(OCCOC)cc23)c1 | 93.1

Excerpt of the above (study 3):
Compound | inhibition
COc1cc(-c2cn(C3CCc4c(F)cccc4N(CC(F)(F)F)C3=O)nn2)ccc1-n1cnc(C)c1 (centres unmarked) | 7.55%
O=C(N[C@H]1CCCCC/C=C\C2C[C@@]2(C(=O)O)NC(=O)[C@@H]2C[C@@H](Oc3ccncc3)CN2C1=O)OC1CCCC1 (some centres unmarked) | 23.9%
CC1CCN(c2ccnc(NCc3cn(C)cn3)n2)CC1 | 40.1%
Cc1c(NC(=O)c2cc(C(N)=O)nc3cc(F)ccc23)c(C(F)(F)F)nn1Cc1ccc(C#N)cc1 | -37.7%
